Assay results collected from several papers.
Protocols differ between the studies behind these lines.
Cell line: NCI-H460

COc1cc(CNC(=O)C[C@H](C)CCC=C(C)C)ccc1OCc1cn(-c2ccc([N+](=O)[O-])cc2)nn1 — growth percent (SRB; 10 µM, 48 h): 78.2%
CCC1=C(CC)C2=[N+]3C1=Cc1c(CC)c(CC)c4[n]1[Ir-3]31([Cl])([C]#[O+])[n]3c(c(CC)c(CC)c3=CC3=[N+]1C(=C4)C(CC)=C3CC)=C2 — phototoxicity index (baseline: IC50 dark over IC50 light): > 2.5
COc1cc(CNC(=O)C[C@H](C)CCC=C(C)C)ccc1OCc1cn(-c2ccccc2[N+](=O)[O-])nn1 — growth percent (SRB; 10 µM, 48 h): 84.2%
CC(C)C1=C(O)C(=O)C2=C(C1=O)[C@H](OC=O)[C@@H](O)[C@H]1C(C)(C)CCC[C@]21C — GI50 (cell growth or viability, MTT; 72 h): 14.9 µM
CC(=C(c1ccc(O)cc1)c1ccc(Cl)cc1)c1ccc(Cl)cc1 — GI50 (cell growth or viability, SRB): 0.48 µM
COc1ccc(C2=Nn3c(NN=C4C(=O)N(Cc5ccccc5)c5ccc(Cl)cc54)nnc3SC2)cc1 — inhibition (cell growth or viability, SRB; 10 µM): 51%
CC1=C(C2=C(C)C(=O)c3c(cc(O)c(O)c3C(C)C)C2=O)C(=O)c2cc(O)c(O)c(C(C)C)c2C1=O (racemic) — EC50 (cell growth or viability, ATP luminescence; 72 h): 0.71 µM
CC(=O)OC[C@H]1O[C@@H](Sc2sc(C(=O)c3ccc(C)cc3)c(N)c2-c2nc3ccccc3s2)[C@H](OC(C)=O)[C@@H](OC(C)=O)[C@@H]1OC(C)=O — growth (SRB; 10 µM, 48 h; baseline: untreated): 43.7%
CCCC(C)NC(=O)C(Nc1ccccc1C(=O)c1ccccc1)c1cn(C)c2ccccc12 (stereo not drawn) — GI50 (cell growth or viability, MTT; 72 h): 12 µM
CC(=O)OC[C@H]1O[C@@H](Sc2sc(C(=O)c3ccc(Br)cc3)c(N)c2-c2nc3ccccc3s2)[C@H](OC(C)=O)[C@@H](OC(C)=O)[C@@H]1OC(C)=O — growth (SRB; 10 µM, 48 h; baseline: untreated): 44.3%
CCC1=C(CC)C2=[N+]3C1=Cc1c(CC)c(CC)c4[n]1[Ir-3]31([n+]3ccccc3)([n+]3ccccc3)[n]3c(c(CC)c(CC)c3=CC3=[N+]1C(=C4)C(CC)=C3CC)=C2.[Cl-] — phototoxicity index (baseline: IC50 dark over IC50 light): 23.1
COc1cc(CNC(=O)C[C@H](C)CCC=C(C)C)ccc1OCc1cn(-c2ccccc2F)nn1 — growth percent (SRB; 10 µM, 48 h): 89%
CC(=O)O[C@H]1C2=C(C(=O)C(O)=C(C(C)C)C2=O)[C@@]2(C)CCCC(C)(C)[C@@H]2[C@@H]1O — GI50 (cell growth or viability, MTT; 72 h): 2.7 µM
COc1cc(CNC(=O)C[C@H](C)CCC=C(C)C)ccc1OCc1cn(-c2ccccc2Cl)nn1 — growth percent (SRB; 10 µM, 48 h): 78.4%
CC/C=C\C/C=C\C/C=C\C/C=C\C/C=C\C/C=C\CCC(=O)Nc1ccn(C2OC(CO)C(O)C2(F)F)c(=O)n1 (stereo not drawn) — TGI (NCI60 screen): 11.8 µM

Excerpt of the above:
CC(C)C1=C(O)C(=O)C2=C(C1=O)[C@H](OC=O)[C@@H](O)[C@H]1C(C)(C)CCC[C@]21C — GI50 (cell growth or viability, MTT; 72 h): 14.9 µM
